Measurements from different studies.
Lines come from different studies, so protocols differ. ± marks the error that the study gave.

| SMILES | system | conditions | how to read | measurement | value |
| --- | --- | --- | --- | --- | --- |
| COC[C@@H](CC(C)C)NC(=O)c1ccc(C)c(C)c1 | Sprague-Dawley rats, plasma | oral, 100 mg/kg | relative to: female over male | Cmax ratio | 1.94 |
| COc1cc([C@H]2OC[C@H]3[C@@H]2CO[C@@H]3c2ccc(O[C@@H]3O[C@H](CO)[C@@H](O)[C@H](O)[C@H]3O)c(OC)c2)ccc1O[C@@H]1O[C@H](CO)[C@@H](O)[C@H](O)[C@H]1O | rat, plasma | oral, dose not given, dosed as combined Eu and Pc extracts | relative to: single extracts | Cmax decrease | 40.1 ± 21.7 ng/mL |
| CN1CCC[C@H](CN2c3ccccc3Sc3ccccc32)C1.Cl | female Wistar rat, kidney | oral, 16 mg/kg | – | Cmax | 5620 ng/g |
| Cc1cc(C(=O)NC(C)(C)COc2cccc3c2C(N)=NS(=O)(=O)N3)cc(C)n1 | Sprague-Dawley rat, plasma | oral, 30 mg/kg, vehicle 1% methylcellulose | relative to: female over male | Cmax ratio | 1.18 |
| Cc1nc2cccc(OCC(C)(C)C(=O)NC(C)C)c2c(N)c1C(=O)O | Sprague-Dawley rat, plasma | oral, 30 mg/kg, day 1 | relative to: female over male | Cmax ratio female over male | 0.69 ± 0.34 |
| Cc1cccc(CNC(=O)c2cn(CCNC(=O)c3ccccc3Sc3c([N+](=O)[O-])ncn3C)c3cc4c(cc3c2=O)OC(F)(F)O4)n1 | Sprague-Dawley rat, male, plasma | intramuscular, 10 mg/kg of parent drug | – | Cmax | 39.3 ± 12.2 ng/mL |
| C=CC(=O)N1CCC(Oc2cc3c(Nc4ccc(Cl)c(Cl)c4F)ncnc3cc2OC)CC1 | Sprague-Dawley rat male, plasma | oral, 2 mg/kg, together with: schisandrin A 20 mg/kg daily 1 weeks pretreatment | relative to: no pretreatment | Cmax ratio | 1.17 fold |
| CSc1ccccc1C(=O)NCCn1cc(C(=O)NCc2cccc(C)n2)c(=O)c2cc3c(cc21)OC(F)(F)O3 | Sprague-Dawley rat, male, plasma | intramuscular, 10 mg/kg of parent drug | – | Cmax | 4.75 ± 0.99 ng/mL |
| Cn1c(C(F)(F)F)cc(=O)n(-c2cc(Oc3cccnc3OCC(=O)O)c(Cl)cc2F)c1=O | Crl:CD(SD) rats, male, plasma | oral diet, 50 ppm in diet, day 1, 90-day toxicity study | – | Cmax | 52.3 ng/mL |
| Cc1cccc(CNC(=O)c2cn(CCNC(=O)c3ccccc3S)c3cc4c(cc3c2=O)OC(F)(F)O4)n1 | Sprague-Dawley rat, male, whole blood | intramuscular, 3 mg/kg of parent drug | – | Cmax | 326 ± 90.6 ng/mL |
| CCCC(CCC)NC(=O)c1ccc2c(c1)OCO2 | rat Sprague-Dawley, plasma | intravenous, 1 mg/kg | relative to: female over male | Cmax ratio | 0.85 |
